Measurements gathered from unrelated publications.
Parts stem from different laboratories: compare values within a part only. Changes are numbered by the printed parent chain.
Sequence of UniProt P25021 (whole entry, looked up): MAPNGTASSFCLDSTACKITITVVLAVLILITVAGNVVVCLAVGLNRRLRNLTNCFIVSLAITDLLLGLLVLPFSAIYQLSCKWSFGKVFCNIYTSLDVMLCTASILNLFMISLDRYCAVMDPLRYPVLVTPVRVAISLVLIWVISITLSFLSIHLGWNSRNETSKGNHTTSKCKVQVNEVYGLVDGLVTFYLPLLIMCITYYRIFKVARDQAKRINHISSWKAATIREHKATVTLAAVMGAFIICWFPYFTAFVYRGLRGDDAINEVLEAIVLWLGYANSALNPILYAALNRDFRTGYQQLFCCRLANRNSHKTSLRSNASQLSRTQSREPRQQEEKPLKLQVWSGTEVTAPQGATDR

Sample 1 — target: CCNA2, cyclin fold, Cln2 fusion (human); method: yeast growth competition, sequencing; medium: yeast; setting: strong parent motif; baseline: not given; direction: higher = stronger binding; starting sequence: viral docking peptide; TSVRRALFTGGSD
| Change | normalised enrichment score |
| --- | --- |
| F8Q | 0.59 |
| S12I | 6.14 |
| G11N | 6.17 |
| R4P | 1.52 |
| G11V | 6.36 |
| S12M | 6.12 |
| S2Q | 5.89 |
| F8L | 1.27 |

Sample 2 — target: tungstate, free oxyanion; method: microfluidic competitive inhibition; medium: in vitro, cell-free expressed; tested at: not given; direction: lower = stronger binding
Setting: derived from inhibition constants, unchanged parent 2230 nM
Starting sequence: PafA, mature enzyme, eGFP fusion (Elizabethkingia meningoseptica, UniProt Q9KJX5); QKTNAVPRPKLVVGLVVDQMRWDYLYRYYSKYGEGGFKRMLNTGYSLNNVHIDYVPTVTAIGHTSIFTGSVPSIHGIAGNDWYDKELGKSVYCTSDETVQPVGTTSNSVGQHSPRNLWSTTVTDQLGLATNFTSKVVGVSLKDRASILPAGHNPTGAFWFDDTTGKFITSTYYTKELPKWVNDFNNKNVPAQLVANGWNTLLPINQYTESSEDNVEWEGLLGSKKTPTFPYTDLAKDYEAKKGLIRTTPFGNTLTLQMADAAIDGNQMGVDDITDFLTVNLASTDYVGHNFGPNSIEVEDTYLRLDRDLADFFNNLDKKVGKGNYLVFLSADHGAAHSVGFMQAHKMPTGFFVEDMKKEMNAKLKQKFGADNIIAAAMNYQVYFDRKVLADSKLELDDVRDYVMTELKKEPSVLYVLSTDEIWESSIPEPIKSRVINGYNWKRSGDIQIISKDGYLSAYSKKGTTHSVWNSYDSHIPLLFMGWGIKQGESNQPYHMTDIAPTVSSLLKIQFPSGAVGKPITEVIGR
| Change | oxyanion analog dissociation constant |
| --- | --- |
| K508V | 2.09 µM |
| S170G | 967 nM |
| A375G | 1.83 µM |
| F312V | 1.95 µM |
| G323V | 2.17 µM |
| N188V | 1.77 µM |
| I77V | 2.06 µM |
| D300G | 1.09 µM |

Sample 3 — effect on: binding; method: phage display NGS; form: peptide; tested at: concentration not given; setting: normalized abundance; baseline: input library
Target: UDP-N-acetylglucosamine--peptide N-acetylglucosaminyltransferase 110 kDa subunit (OGT, Homo sapiens, UniProt O15294)
Sequence of UniProt O15294 (whole entry, looked up): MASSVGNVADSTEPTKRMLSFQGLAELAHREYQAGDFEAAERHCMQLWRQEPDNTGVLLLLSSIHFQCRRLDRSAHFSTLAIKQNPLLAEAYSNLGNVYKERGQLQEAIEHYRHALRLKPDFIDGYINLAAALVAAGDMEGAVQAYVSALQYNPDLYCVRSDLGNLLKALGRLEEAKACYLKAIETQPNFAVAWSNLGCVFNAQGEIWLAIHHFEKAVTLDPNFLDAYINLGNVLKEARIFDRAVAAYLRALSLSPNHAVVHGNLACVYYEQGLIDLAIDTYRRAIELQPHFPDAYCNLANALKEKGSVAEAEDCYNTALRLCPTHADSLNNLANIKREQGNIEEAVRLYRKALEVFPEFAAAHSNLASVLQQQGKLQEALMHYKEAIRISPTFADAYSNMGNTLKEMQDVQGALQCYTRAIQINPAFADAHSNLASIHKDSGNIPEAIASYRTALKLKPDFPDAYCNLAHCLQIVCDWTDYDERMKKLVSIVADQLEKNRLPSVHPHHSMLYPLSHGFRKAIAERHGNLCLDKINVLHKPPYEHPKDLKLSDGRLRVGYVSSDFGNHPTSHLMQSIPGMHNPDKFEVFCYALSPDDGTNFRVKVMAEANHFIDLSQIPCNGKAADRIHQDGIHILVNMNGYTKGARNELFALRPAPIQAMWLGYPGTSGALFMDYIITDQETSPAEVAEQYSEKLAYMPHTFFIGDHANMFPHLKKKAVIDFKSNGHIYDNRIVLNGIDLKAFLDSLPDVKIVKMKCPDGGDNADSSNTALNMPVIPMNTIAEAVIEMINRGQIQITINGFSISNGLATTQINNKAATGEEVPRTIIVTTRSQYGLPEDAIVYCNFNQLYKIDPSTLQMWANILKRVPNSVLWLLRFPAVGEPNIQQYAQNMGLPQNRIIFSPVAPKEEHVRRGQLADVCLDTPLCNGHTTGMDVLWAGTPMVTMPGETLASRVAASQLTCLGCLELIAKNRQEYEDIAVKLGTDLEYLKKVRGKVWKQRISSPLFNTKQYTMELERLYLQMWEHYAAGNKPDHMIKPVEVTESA
| Sequence | enrichment fold change |
| --- | --- |
| VEQSSPFAPQYQIQM | 20.2 |
| EPRHLYHIHQDHRQT | 6.49 |
| QYQHRSYMPFYQIAT | 68.9 |
| FVHDQHKQHYHIVAH | 71.8 |
| QYLHPHHHFAGMTG | 4.82 |
| TPFLPMYQIPMDVHN | 15.9 |
| AQNYLPVYQIVWRDN | 11.4 |
| QMDGMFPPKYQINSF | 12 |

Single results of other studies
| SMILES | target | effect on | tested at | endpoint | result |
| --- | --- | --- | --- | --- | --- |
| Cc1c(N2CCNCC2)nc2ccc(Br)cc2c1C(=O)NC[C@H](CCC(=O)O)c1ccccc1Cl | Histamine H2 receptor (HRH2, Homo sapiens, UniProt P25021) | ligand displacement | 10 µM | inhibition | -4.15% |
